{"data": "Results from different studies", "note": "Parts stem from different laboratories: compare values within a part only."}
{"data": "Block 1", "target": "Centromere-binding protein 1, full length, N-terminal tag (CBF1, Saccharomyces cerevisiae, UniProt P17106, residues 1-351)", "technique": "protein-binding microarray", "molecule type": "double-stranded DNA, one strand shown", "sample": "in vitro", "concentration": "0.8 µM", "notes": "whole 60-bp probe, no competitor", "reading": "higher = stronger binding", "chain of UniProt P17106 (whole entry, looked up)": "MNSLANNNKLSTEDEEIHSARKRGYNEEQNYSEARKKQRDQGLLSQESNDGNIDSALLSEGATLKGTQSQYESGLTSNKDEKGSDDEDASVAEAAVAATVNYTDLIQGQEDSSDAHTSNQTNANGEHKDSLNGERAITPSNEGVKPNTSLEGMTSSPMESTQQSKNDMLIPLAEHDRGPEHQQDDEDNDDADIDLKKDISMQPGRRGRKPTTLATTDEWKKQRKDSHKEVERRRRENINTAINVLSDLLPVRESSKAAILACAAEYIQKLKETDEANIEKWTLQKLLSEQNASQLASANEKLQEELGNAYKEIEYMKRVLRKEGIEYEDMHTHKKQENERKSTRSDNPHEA"}
{"Sequence": "CTAGCTTCATGAGGGCATGTGATTTCATTGCATTTCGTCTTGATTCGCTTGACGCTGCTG", "fluorescence intensity": "2100 a.u."}
{"Sequence": "GAATTGATATTGTTTCACCTGTTCATCTTTAATTAGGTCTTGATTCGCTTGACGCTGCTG", "fluorescence intensity": "581 a.u."}
{"Sequence": "GAAGTCAAGATCTGTCATCAGTTGTTTTGCGTGTAGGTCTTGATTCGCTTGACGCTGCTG", "fluorescence intensity": "521 a.u."}
{"Sequence": "TGTACGAAGCTATGTTGTGTGAATATAGTAGTTAGGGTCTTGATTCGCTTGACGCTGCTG", "fluorescence intensity": "551 a.u."}
{"Sequence": "GAATCTTTACTGTGCAATCACATGTACAAGGCTTAGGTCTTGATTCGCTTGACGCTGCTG", "fluorescence intensity": "2060 a.u."}
{"Sequence": "CTAGGGAGACCTCGACGTGTGACTTGAATTAAGTTCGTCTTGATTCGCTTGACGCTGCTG", "fluorescence intensity": "1050 a.u."}
{"Sequence": "GAACCCGACCTTACAGGCGTGCACCGCGTAGTATAGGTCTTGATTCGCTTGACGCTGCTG", "fluorescence intensity": "496 a.u."}
{"Sequence": "GAAGGGAAAAATCAACATCAGATCCTCGAGAGTTAGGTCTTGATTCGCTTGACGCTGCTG", "fluorescence intensity": "506 a.u."}
{"Sequence": "CTAAGCAGCAGCAACAGCACCACCACCAATGCATTCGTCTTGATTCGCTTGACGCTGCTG", "fluorescence intensity": "508 a.u."}
{"Sequence": "CCTAACTACTATAACCACCATGTATAGCTTCGTACAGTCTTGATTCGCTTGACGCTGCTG", "fluorescence intensity": "501 a.u."}
{"Sequence": "GAAACAAAACAATGCCGCACCTGAGGGAGAACATAGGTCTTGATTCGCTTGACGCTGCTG", "fluorescence intensity": "522 a.u."}
{"Sequence": "CTAATGTATTAGAGTCACCTAATCACCAAGCGATTCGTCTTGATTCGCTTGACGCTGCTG", "fluorescence intensity": "510 a.u."}
{"Sequence": "TGTACGAAGCTATATGTGATGAATATAGTAGTTAGGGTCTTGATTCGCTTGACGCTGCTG", "fluorescence intensity": "545 a.u."}
{"Sequence": "CTATATATATTACGTCATCTGACATACGACACTTTCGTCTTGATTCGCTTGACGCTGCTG", "fluorescence intensity": "1780 a.u."}
{"Sequence": "CTAAGCATTTTTTATCACGTTATTCGGTGACACTTCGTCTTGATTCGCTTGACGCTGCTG", "fluorescence intensity": "2120 a.u."}
{"Sequence": "GAAAGATCAACGAAGCACGCGATGAAATTCTGCTAGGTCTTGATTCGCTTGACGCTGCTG", "fluorescence intensity": "683 a.u."}
{"Sequence": "GAAAGAGAAACCCGTGGGCACGTGGCTGTTATATAGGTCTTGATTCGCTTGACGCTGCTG", "fluorescence intensity": "9450 a.u."}
{"Sequence": "TGTACGAAGCTATTGAACGTGTCTATAGTAGTTAGGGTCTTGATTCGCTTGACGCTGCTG", "fluorescence intensity": "543 a.u."}
{"Sequence": "CCTAACTACTATATCATCGTGGCATAGCTTCGTACAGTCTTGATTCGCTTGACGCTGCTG", "fluorescence intensity": "536 a.u."}
{"data": "Block 2", "target": "Sal-like protein 4, full length isoform B (SALL4, Homo sapiens, UniProt Q9UJQ4-2, residues 1-616)", "technique": "universal PBM", "molecule type": "double-stranded DNA, one strand shown", "sample": "in vitro", "concentration": "not given", "notes": "8-mer, flanks averaged, mean of replicates", "reading": "higher = stronger binding", "Target sequence (chain)": "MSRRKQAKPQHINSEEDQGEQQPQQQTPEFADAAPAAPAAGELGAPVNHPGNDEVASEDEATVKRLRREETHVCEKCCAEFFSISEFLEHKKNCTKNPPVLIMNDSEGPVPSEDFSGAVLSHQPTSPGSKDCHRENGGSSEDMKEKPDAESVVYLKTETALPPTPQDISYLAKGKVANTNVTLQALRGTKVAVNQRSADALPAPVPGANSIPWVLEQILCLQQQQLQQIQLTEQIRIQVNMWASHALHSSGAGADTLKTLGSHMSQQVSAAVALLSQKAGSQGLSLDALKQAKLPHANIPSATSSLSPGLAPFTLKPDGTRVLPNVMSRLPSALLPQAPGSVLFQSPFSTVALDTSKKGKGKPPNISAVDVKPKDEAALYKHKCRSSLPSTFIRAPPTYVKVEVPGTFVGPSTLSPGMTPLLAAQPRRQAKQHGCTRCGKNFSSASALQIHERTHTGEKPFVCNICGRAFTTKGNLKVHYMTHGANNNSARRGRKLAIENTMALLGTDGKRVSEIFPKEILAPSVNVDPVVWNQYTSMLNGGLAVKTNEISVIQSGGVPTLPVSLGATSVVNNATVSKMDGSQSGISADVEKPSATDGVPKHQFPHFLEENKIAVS"}
{"Sequence": "CAGGGCTC", "E-score": -0.216}
{"Sequence": "CTGTTGGC", "E-score": -0.184}
{"Sequence": "ACTGCCGA", "E-score": -0.166}
{"Sequence": "TACAGTGA", "E-score": 0.171}
{"Sequence": "ACACACTG", "E-score": -0.141}
{"Sequence": "AGCTTGAA", "E-score": 0.00922}
{"Sequence": "CCCCAAAG", "E-score": -0.218}
{"Sequence": "GGAAAGCC", "E-score": -0.226}
{"Sequence": "ATCACGCC", "E-score": -0.0366}
{"Sequence": "AATCCTCA", "E-score": 0.0518}
{"Sequence": "ACTCGTAA", "E-score": 0.182}
{"Sequence": "TATGCGGA", "E-score": 0.146}
{"Sequence": "AATAACAC", "E-score": 0.204}
{"Sequence": "CGCGTAAA", "E-score": 0.181}
{"Sequence": "GATCCACA", "E-score": 0.07}
{"Sequence": "CAGTCGTA", "E-score": -0.0148}
{"Sequence": "GCGCGGAC", "E-score": -0.227}
{"Sequence": "GAGGGATC", "E-score": -0.23}
{"data": "Block 3", "target": "RNA binding protein fox-1 homolog 2, RRM domain, GST-SBP tag (RBFOX2, Homo sapiens, UniProt O43251-10, residues 100-194)", "technique": "RNA Bind-n-Seq", "molecule type": "RNA", "sample": "in vitro", "concentration": "365 nM", "notes": "natural RNA segment, single round, ends assumed", "reference": "no-protein control", "reading": "higher = stronger binding", "Target sequence (chain)": "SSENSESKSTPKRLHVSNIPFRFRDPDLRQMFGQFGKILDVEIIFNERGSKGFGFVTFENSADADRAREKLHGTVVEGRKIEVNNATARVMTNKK"}
{"Sequence": "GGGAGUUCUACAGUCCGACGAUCGAGUUUAGCAACCUUCCAGUUACCUGCAGAGUUCUGGGUGCACAGCCACCCCUCAUAAGAGCCCUGUUCUCUGAAGACCAUUCAUAUGAGAACAAAGGUCUAGGAUACUGUGGAAUUCUCGGGUGCCAA", "RBNS enrichment (R)": 0.234}
{"Sequence": "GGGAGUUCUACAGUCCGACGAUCUGCUUCCUUACCUGUCAAUAACAAUGGUGGCCACCUGGGUCCCAGCACUUGGCUGGUGGAGAGAUUUUUUUCAUUAUGGAGCUAAUAAAGGGUCCCUACGUUUUACAUUGUGGAAUUCUCGGGUGCCAA", "RBNS enrichment (R)": 0.245}
{"Sequence": "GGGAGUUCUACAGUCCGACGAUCUUUCUUCUCUCCAGUGGCACUUGUUGGCAACUAGAUACAGGUUUCUAACCGGUUCACGGUUCACCCCCUAUAUGUAAUUAUAGGAAUUGUAUGUGGAAAUGGAUUAACAUUGGAAUUCUCGGGUGCCAA", "RBNS enrichment (R)": 0.304}
{"Sequence": "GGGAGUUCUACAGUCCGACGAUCAUGAAAUACAUGUAUAUUGUGUAUGGACUUAAUUAUGCACAUGCUCAGAUGUGUAGACAUCCUCCGUAUAUUUACAUAACAUAUAGAGGUAAUAGAUAGGUGAUAUACAUUGGAAUUCUCGGGUGCCAA", "RBNS enrichment (R)": 0.512}
{"Sequence": "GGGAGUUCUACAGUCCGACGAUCUGCACCUUGGGAAGACUUGCUUUGCAUUCUGCCUCAAGAGCUUCUCAUUGAUGUCCAUCUGGAGGCCAGGGGGGUCUUGGAACUACCAUUUUUUUUUCCUUUAGAUCAACUGGAAUUCUCGGGUGCCAA", "RBNS enrichment (R)": 0.746}
{"Sequence": "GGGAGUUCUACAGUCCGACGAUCUUUUUUUAAAAUUAUGAAUCAUAUCAAGUAGUUGUUUACAUUUCUUGAAAAAAUAGGAACUCGGGCAGCAGAAUCAGAUUGGCAGAAUCUUUAGACUACACAGGCAAUAAUGGAAUUCUCGGGUGCCAA", "RBNS enrichment (R)": 0.616}
{"Sequence": "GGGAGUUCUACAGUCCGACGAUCCUGCUGGGUGGUGAUUGUGAGUUCAGACAAUAAAAAAAAUGUAUUUUUUUCAAUACUGUAUAAAAAUAGUAUUCUGAUUACCUCCCCCUCAAUAAAAAAAAAGUCCAGAUUGGAAUUCUCGGGUGCCAA", "RBNS enrichment (R)": 0.612}
{"Sequence": "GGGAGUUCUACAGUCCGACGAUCAGGCUGCCCCGGGCCUGGCGGGCCACCCCUCUCUAUGCAAACACGUAAAAGCCAUGAAUGCUGGAAUCCAAAACUGACGAGGUUUAUUUUUUUCAGAGCCAGUGGCUGGUUGGAAUUCUCGGGUGCCAA", "RBNS enrichment (R)": 0.424}
{"data": "Block 4", "target": "Ras GTPase-activating protein-binding protein 1, full length (G3BP1, Homo sapiens, UniProt Q13283)", "technique": "RNA Bind-n-Seq", "molecule type": "RNA", "sample": "in vitro", "concentration": "200 nM", "notes": "whole 134-nt RNA, ends assumed", "with": "150 mM KCl", "reference": "input library", "reading": "higher = stronger binding", "chain of UniProt Q13283 (whole entry, looked up)": "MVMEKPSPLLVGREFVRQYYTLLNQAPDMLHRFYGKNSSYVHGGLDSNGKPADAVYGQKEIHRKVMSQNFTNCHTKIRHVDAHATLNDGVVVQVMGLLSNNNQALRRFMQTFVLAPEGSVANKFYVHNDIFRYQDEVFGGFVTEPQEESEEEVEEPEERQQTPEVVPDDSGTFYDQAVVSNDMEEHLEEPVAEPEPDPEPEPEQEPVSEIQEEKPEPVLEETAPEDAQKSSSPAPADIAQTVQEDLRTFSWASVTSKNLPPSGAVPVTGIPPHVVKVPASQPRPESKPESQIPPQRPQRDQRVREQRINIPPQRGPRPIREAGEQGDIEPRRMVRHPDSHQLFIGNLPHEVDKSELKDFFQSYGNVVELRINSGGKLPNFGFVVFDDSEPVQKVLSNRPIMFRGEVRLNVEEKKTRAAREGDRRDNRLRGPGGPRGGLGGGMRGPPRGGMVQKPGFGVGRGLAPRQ"}
{"Sequence": "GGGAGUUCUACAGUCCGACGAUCCCUGUGCUACACAUCGUAUGUACCGAAUCGGAAAAAAAGGGGAAAAAAAGGAAAAAAAGGGAAAGUAUUAUGUUACGCCGUUCGGAUCUGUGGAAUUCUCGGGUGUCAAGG", "log2 enrichment": -0.784}
{"Sequence": "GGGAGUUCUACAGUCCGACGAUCCAAGUCCUGUGCUACACAUCGUAUGUACCGAAUCGGGGUGGGGAAAGGGGAGGGGAAAGUAUUAUGUUACGCCGUUCGGAUCUGCACUUCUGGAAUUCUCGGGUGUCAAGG", "log2 enrichment": 1.16}
{"Sequence": "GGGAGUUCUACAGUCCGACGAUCUCAAGUCCUGUGCUACACAUCGUAUGUACCGAAUCGGGAAAAAGGGUGGGAGGGAAAGUAUUAUGUUACGCCGUUCGGAUCUGCACUUCCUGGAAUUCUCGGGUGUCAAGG", "log2 enrichment": 1.11}
{"Sequence": "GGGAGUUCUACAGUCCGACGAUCUAACUUUAGAAGAGGAUCUGAUGGAUAUGGCAGUGGACGUGGAUUUGGGGAUGGCUAUAAUGGGUAUGGAGGAGGACCUGGAGGUGGCAAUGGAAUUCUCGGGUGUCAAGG", "log2 enrichment": 0.418}
{"Sequence": "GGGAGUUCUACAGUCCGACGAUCGCAGGAAGUAAAAACAAAUGGAAAUGCUUCGGAUAGUGGCAGGGGUGGGGGUUGCUUAGGAAAGGGUGGGAUGGGAGUGGGUAAAGAGUUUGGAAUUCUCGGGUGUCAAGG", "log2 enrichment": 1.05}
{"Sequence": "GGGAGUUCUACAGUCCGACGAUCUCAAGUCCUGUGCUACACAUCGUAUGUACCGAAUCGGGUUUGGGUUUGGGAGGGAAAGUAUUAUGUUACGCCGUUCGGAUCUGCACUUCCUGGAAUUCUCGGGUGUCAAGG", "log2 enrichment": 1.03}
{"Sequence": "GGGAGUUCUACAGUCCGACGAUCCCUGUGCUACACAUCGUAUGUACCGAAUCGGCCCCCCCGGCCCCCCCGGGCCCCCCCGGGGAAAGUAUUAUGUUACGCCGUUCGGAUCUGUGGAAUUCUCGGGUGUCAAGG", "log2 enrichment": -0.223}
{"Sequence": "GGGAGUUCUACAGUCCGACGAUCGCAGGAAGUAAAAACAAAUGGAAAUGCUUCGGAUAGUGGCAGGGGUGGGGGUUGCUAAGGUAAGGGUGGGAUGGGAGUGGGUAAAGAGUUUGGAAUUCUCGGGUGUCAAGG", "log2 enrichment": 0.69}
{"Sequence": "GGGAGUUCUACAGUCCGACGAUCUGGGAGGUAGAUUUUGUUUAUUUUUUUAGCUCAUUUCCAGGGGUGGGAAUUUUUUUUUAAUAUGUGUCAUGAAUAAAGUUGUUUUUGAAAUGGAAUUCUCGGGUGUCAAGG", "log2 enrichment": -0.642}
{"note": "Some of these lines once more (block 1):"}
{"Sequence": "CCTAACTACTATATCATCGTGGCATAGCTTCGTACAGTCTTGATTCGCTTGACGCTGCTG", "fluorescence intensity": "536 a.u."}
{"Sequence": "CTAATGTATTAGAGTCACCTAATCACCAAGCGATTCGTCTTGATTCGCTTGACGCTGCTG", "fluorescence intensity": "510 a.u."}
{"Sequence": "CTAAGCATTTTTTATCACGTTATTCGGTGACACTTCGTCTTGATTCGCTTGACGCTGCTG", "fluorescence intensity": "2120 a.u."}
{"Sequence": "GAAGTCAAGATCTGTCATCAGTTGTTTTGCGTGTAGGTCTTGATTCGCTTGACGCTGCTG", "fluorescence intensity": "521 a.u."}
